Measured values of several laboratories.
Each line is one published result; not all experiments were run side by side. ± marks the error that the study gave.

CNC(=O)c1cc(Oc2ccc(NC(=O)c3ccc(-c4ccccc4OC(=O)CCC(=O)OC4OC5OC6(C)CCC7C(C)CCC(C4C)C57OO6)cn3)cc2)ccn1 (stereo not drawn)  selectivity ratio (Huh-7 and LO2; cell viability, MTT; 72 h; reference: IC50 LO2 over IC50 Huh-7): > 17.1
CC(=O)Oc1ccc(/C=C/C(=O)Nc2nc(=O)n([C@@H]3O[C@H](C)[C@@H](OC(C)=O)[C@H]3OC(C)=O)cc2F)cc1OC(C)=O  selectivity index (BXPC-3; cell viability, MTT; reference: NHDF fibroblasts over BXPC-3): 3.83
CCCN1CCNC1=[S+][Ag-3]([O][N+](=O)[O-])([P+](c1ccccc1)(c1ccccc1)c1ccccc1)[P+](c1ccccc1)(c1ccccc1)c1ccccc1  cell killing (MG-63 osteosarcoma; MTT; 12.5 µM): ≤ 65%
CC[C@@]12CC[C@@H]3N(C)c4ccccc4[C@@]34CCN(C[C@H]3O[C@H]31)[C@@H]24  inhibition (BV-2; NO production; 25 µM, 1 h, 24 h stimulation, with: LPS 800 ng/mL; reference: LPS control): 61.8 ± 4%
CC[C@H](C)[C@@H]1NC(=O)CNC(=O)[C@H](CCSC)NC(=O)[C@H](C(C)C)NC(=O)[C@H]([C@@H](C)O)NC(=O)[C@@H]2CSSC[C@@H]3NC(=O)[C@H](Cc4c[nH]cn4)NC(=O)[C@@H](NC(=O)[C@@H](NC(=O)[C@H](Cc4ccccc4)NC(=O)[C@H](C)N)[C@@H](C)O)CSSC[C@@H](C(=O)N[C@@H](CC(C)C)C(=O)O)NC(=O)[C@H](CSSC[C@H](NC(=O)[C@H](CO)NC(=O)[C@H](CCCNC(=N)N)NC(=O)[C@H](CCCNC(=N)N)NC3=O)C(=O)N[C@@H](Cc3ccc(O)cc3)C(=O)N[C@@H](CO)C(=O)N[C@@H]([C@@H](C)O)C(=O)N[C@@H](CCC(=O)O)C(=O)N[C@@H](Cc3ccc(O)cc3)C(=O)N[C@@H](CO)C(=O)N[C@@H](Cc3ccc(O)cc3)C(=O)NCC(=O)N[C@@H]([C@@H](C)O)C(=O)N2)NC(=O)[C@H](Cc2ccccc2)NC(=O)[C@H](CCCNC(=N)N)NC(=O)[C@H](Cc2c[nH]cn2)NC(=O)[C@H](CC(N)=O)NC1=O  viability (RIN-m5F; MTT; 20 µM, 24 h, with: hIAPP 20 µM): 85%
CC[C@H](C)[C@H]1C(=O)O[C@H](C(C)C)C(=O)N(C)[C@@H]([C@@H](C)CC)C(=O)O[C@H](C(C)C)C(=O)N(C)[C@@H]([C@@H](C)CC)C(=O)O[C@H](C(C)C)C(=O)N1C  thermal stabilization temperature (E0771; CETSA, refers to: Hsp90β; 20 µM, 1 h): > 61 °C
CC12CCC3(CCC(=O)OCCNc4ccnc5cc(Cl)ccc45)C(C)(OOC3(C)O1)O2  inhibition (MOLT-4; cell growth or viability, resazurin; 10 µM, 48 h): 12.9%
CC1OC2OC3C4=C(OC3(C)C12O)C(=O)c1c(O)cccc1C4=O (stereo not drawn)  selectivity index (A549 and HFF; MTT; reference: CC50 HFF over EC50 A549): 2
CSCC[C@H](NC(=O)[C@H](CC(C)C)NC(=O)CNC(=O)[C@H](Cc1ccccc1)NC(=O)[C@H](Cc1ccccc1)NC(=O)[C@H](CCC(N)=O)NC(=O)[C@H](CCC(N)=O)NC(=O)[C@@H]1CCCN1C(=O)[C@H](CCCCN)NC(=O)[C@@H]1CCCN1C(=O)[C@@H](N)CCCNC(=N)N)C(N)=O  degranulation rate (rat mast cells; patch-clamp capacitance; 1 to 25 µM): 0.045 ± 0.008 pF/s
CC(=O)N[C@@H](CCCNC(=N)N)C(=O)N[C@@H](CCCNC(=N)N)C(=O)N[C@@H](CCCNC(=N)N)C(=O)N[C@@H](CCCNC(=N)N)C(=O)N[C@@H](CCCNC(=N)N)C(=O)N[C@@H](CCCNC(=N)N)C(=O)N[C@@H](CCCNC(=N)N)C(=O)N[C@@H](CCCNC(=N)N)C(=O)N[C@@H](CCCNC(=N)N)C(=O)N[C@@H](CCCNC(=N)N)C(=O)NCC(=O)N[C@@H](COP(=O)(O)O)C(=O)N1CCC[C@H]1C(=O)N[C@H](C(=O)N[C@@H](Cc1ccccc1)C(=O)O)[C@@H](C)O  γH2AX-positive cells (HeLa; DNA damage, immunostaining; 10 µM, 30 min, with: ionizing radiation 15 Gy): 81.5 ± 3.93%
C=CC12COC(=O)C(=C)C1C(O)C1C(=C)C(=O)OC1C2 (stereo not drawn)  wound closure (JIMT-1; scratch; 2 µM, 72 h): 35%
CNC(=O)c1cc(Oc2ccc(NC(=O)c3cc(-c4cccc(OC(=O)CCC(=O)OC5OC6OC7(C)CCC8C(C)CCC(C5C)C68OO7)c4)ccn3)cc2)ccn1 (stereo not drawn)  selectivity ratio (Hep3B and LO2; cell viability, MTT; 72 h; reference: IC50 LO2 over IC50 Hep3B): 5.3
CC(C)Cc1ccc(C(C)C(=O)OCC(O)COP(=O)([O-])OCC[N+](C)(C)C)cc1 (stereo not drawn)  selectivity ratio (MCF-10A and MCF7; cell growth, SRB; 72 h; reference: IC50 MCF-10A over MCF7): < 1
CC/C=C\C/C=C\C/C=C\C/C=C\C/C=C\C/C=C\CCC(=O)Nc1ccn(C2OC(CO)C(O)C2(F)F)c(=O)n1 (stereo not drawn)  CC50 (SK-MEL-2; NCI60 screen): 67.6 µM
CCCN(CCC)c1ncnc2c1cnn2-c1ccc(C)c(C)c1  viability (primary rat pancreatic islets; flow cytometry, refers to: total and insulin-positive beta cells; 30 µM, 48 h; reference: equimolar EUK-134): increased
[NH-]c1c([I+]c2ccccc2)c(=O)oc2ccccc12  cell death (HaCaT; MTT; 100 µg/mL): > 60%
CC1CCC2C(C)C(OC(=O)CCC(=O)N(CCCc3cn(-c4ccc(C#N)cc4)nn3)CCNc3ccnc4cc(Cl)ccc34)OC3OC4(C)CCC1C32OO4 (stereo not drawn)  inhibition (MOLT-4; cell growth or viability, resazurin; 10 µM, 48 h): 35.7%
O=C(O)CCC(NP(=O)(O)OCCC[C@@H](NC(=O)CCC(NC(=O)CCCCCNC(=O)CCCCCNC(=O)c1ccc([18F])cc1)C(=O)O)C(=O)O)C(=O)O (stereo partly drawn)  surface-bound fraction (CWR22Rv1; 1 h): 15.1 ± 3.88%
CC[C@H](C)[C@H](NC(C)=O)C(=O)N[C@@H](CC(N)=O)C(=O)N[C@@H](Cc1c[nH]c2ccccc12)C(=O)N[C@@H](Cc1c[nH]cn1)C(=O)NCC(=O)N[C@H](C(=O)N[C@@H](C)C(=O)N[C@@H](Cc1c[nH]cn1)C(=O)N[C@@H](CCSC)C(=O)N[C@@H](C)C(=O)N[C@@H](CCCCN)C(=O)N[C@@H](CCCCN)C(=O)N[C@@H](CC(C)C)C(=O)N[C@@H](CC(C)C)C(N)=O)[C@@H](C)CC  Hill coefficient (human erythrocytes; haemolysis; with: Ni(II) 300 µM): 1.3 ± 0.1
CC(C)CC(O)(CC(C)C)c1cn(C(=O)N2CCCC2)nn1  SILAC ratio (mouse T-cells; N-terminal labeled proteins, N-terminal enrichment proteomics, refers to: NDRG1; 1 nM, 6 h; reference: DMSO): 9.05 ± 1.5
CCC(=O)CCC[C@H](C)C[C@H](NC(=O)[C@@H]1C[C@H](C)CN1C(=O)/C=C/[C@@H](C)CC)C(=O)N[C@H](C(=O)NC(C)(C)C(=O)N[C@@H](CC(C)C)C(=O)N[C@@H](CC(C)C)C(=O)NC(C)(C)C(=O)NC(C)(C)C(=O)NCCC(=O)N[C@@H](C)CN(C)C)[C@H](O)C(C)C  GI50 (SUM185PE; cell growth or viability, SRB; 48 h): 0.0021 µM
Cc1cccc(C)c1C(=O)OCC(=O)[C@H](CC(C)C)NC(=O)[C@H](C)NC(=O)[C@H](CCC(=O)O)NC(=O)OCc1ccccc1  actin crosslinking (HFF; inhibitor; concentration not given, with: Vibrio cholerae supernatant, MARTX toxin): inhibited
CC1CCC2C(C)C(OC(=O)CCC(=O)N(CCCc3cn(-c4ccc([N+](=O)[O-])cc4)nn3)CCNc3ccnc4cc(Cl)ccc34)OC3OC4(C)CCC1C32OO4 (stereo not drawn)  inhibition (CCRF-CEM; cell growth or viability, resazurin; 10 µM, 48 h): 52.3%
COC(=O)[C@H](CC(C)C)NC(=O)[C@@H]1CCCN1C(=O)[C@@H](NC(=O)[C@H](CCC(=O)C=[N+]=[N-])NC(=O)OCc1ccccc1)C(C)C  mRNA level (human myoblasts; refers to: cytochrome c; 50 µM, 2 h): increased
CSCC[C@H](NC(=O)[C@H](CCC(=O)O)NC(=O)CN)C(=O)N[C@@H](Cc1ccccc1)C(=O)O  viability (HaCaT; CCK-8; 10 µg/mL, 72 h, 0.4 % serum): 109 ± 1.47%
CC[C@H](C)[C@H](NC(C)=O)C(=O)N[C@@H](CC(N)=O)C(=O)N[C@@H](Cc1c[nH]c2ccccc12)C(=O)N[C@@H](Cc1c[nH]cn1)C(=O)N[C@@H](C)C(=O)N[C@H](C(=O)N[C@@H](C)C(=O)N[C@@H](Cc1c[nH]cn1)C(=O)N[C@@H](CCSC)C(=O)N[C@@H](C)C(=O)N[C@@H](CCCCN)C(=O)N[C@@H](CCCCN)C(=O)N[C@@H](CC(C)C)C(=O)N[C@@H](CC(C)C)C(N)=O)[C@@H](C)CC  Hill coefficient (human erythrocytes; haemolysis; with: Ni(II) 300 µM): 1.8 ± 0.7
COC(=O)c1ccc(-n2cc(CCCN(CCNc3ccnc4cc(Cl)ccc34)C(=O)CCC(=O)OC3OC4OC5(C)CCC6C(C)CCC(C3C)C46OO5)nn2)cc1 (stereo not drawn)  inhibition (MOLT-4; cell growth or viability, resazurin; 10 µM, 48 h): 33.5%
CCCCCCCCCCCCCC(=O)NCC(=O)N[C@@H](CCCNC(=N)N)C(=O)N[C@@H](Cc1c[nH]c2ccccc12)C(=O)N[C@@H](CCCCN)C(=O)N[C@H](C(=O)N[C@@H](Cc1ccccc1)C(=O)N[C@@H](CCCCN)C(=O)N[C@@H](CCCCN)C(=O)N[C@H](C(=O)N[C@@H](CCC(=O)O)C(=O)N[C@@H](CCCCN)C(=O)N[C@H](C(=O)NCC(=O)N[C@@H](CCC(N)=O)C(=O)N[C@@H](CC(N)=O)C(=O)N[C@H](C(=O)N[C@@H](CCCNC(=N)N)C(=O)N[C@@H](CC(=O)O)C(=O)NCC(=O)N[C@H](C(=O)N[C@H](C(=O)N[C@@H](CCCCN)C(=O)N[C@@H](C)C(=O)NCC(=O)N1CCC[C@H]1C(=O)N[C@@H](C)C(=O)N[C@H](C(=O)N[C@@H](C)C(=O)N[C@H](C(=O)N[C@H](C(=O)NCC(=O)N[C@@H](CCC(N)=O)C(=O)N[C@@H](C)C(=O)N[C@@H](C)C(=O)N[C@H](C(=O)N[C@H](C(N)=O)[C@@H](C)CC)[C@@H](C)O)C(C)C)C(C)C)C(C)C)C(C)C)[C@@H](C)CC)[C@@H](C)CC)C(C)C)[C@@H](C)CC)[C@@H](C)CC  necrotic cells (K562/MDR; annexin V/PI flow cytometry; 2 µM, 16 h): 15.9%
COCCOCCOCCOc1ccc(-n2cc(CCCN(CCNc3ccnc4cc(Cl)ccc34)C(=O)CCC(=O)OC3OC4OC5(C)CCC6C(C)CCC(C3C)C46OO5)nn2)cc1 (stereo not drawn)  inhibition (CCRF-CEM; cell growth or viability, resazurin; 10 µM, 48 h): 36.9%
CNC(=O)c1cc(Oc2ccc(NC(=O)c3ccc(-c4ccc(OC(=O)CCC(=O)OC5OC6OC7(C)CCC8C(C)CCC(C5C)C68OO7)cc4)cn3)cc2)ccn1 (stereo not drawn)  selectivity ratio (Huh-7 and LO2; cell viability, MTT; 72 h; reference: IC50 LO2 over IC50 Huh-7): 14.5

Repeated from above:
CNC(=O)c1cc(Oc2ccc(NC(=O)c3ccc(-c4ccccc4OC(=O)CCC(=O)OC4OC5OC6(C)CCC7C(C)CCC(C4C)C57OO6)cn3)cc2)ccn1 (stereo not drawn)  selectivity ratio (Huh-7 and LO2; cell viability, MTT; 72 h; reference: IC50 LO2 over IC50 Huh-7): > 17.1
CC(C)Cc1ccc(C(C)C(=O)OCC(O)COP(=O)([O-])OCC[N+](C)(C)C)cc1 (stereo not drawn)  selectivity ratio (MCF-10A and MCF7; cell growth, SRB; 72 h; reference: IC50 MCF-10A over MCF7): < 1
[NH-]c1c([I+]c2ccccc2)c(=O)oc2ccccc12  cell death (HaCaT; MTT; 100 µg/mL): > 60%
CC[C@H](C)[C@@H]1NC(=O)CNC(=O)[C@H](CCSC)NC(=O)[C@H](C(C)C)NC(=O)[C@H]([C@@H](C)O)NC(=O)[C@@H]2CSSC[C@@H]3NC(=O)[C@H](Cc4c[nH]cn4)NC(=O)[C@@H](NC(=O)[C@@H](NC(=O)[C@H](Cc4ccccc4)NC(=O)[C@H](C)N)[C@@H](C)O)CSSC[C@@H](C(=O)N[C@@H](CC(C)C)C(=O)O)NC(=O)[C@H](CSSC[C@H](NC(=O)[C@H](CO)NC(=O)[C@H](CCCNC(=N)N)NC(=O)[C@H](CCCNC(=N)N)NC3=O)C(=O)N[C@@H](Cc3ccc(O)cc3)C(=O)N[C@@H](CO)C(=O)N[C@@H]([C@@H](C)O)C(=O)N[C@@H](CCC(=O)O)C(=O)N[C@@H](Cc3ccc(O)cc3)C(=O)N[C@@H](CO)C(=O)N[C@@H](Cc3ccc(O)cc3)C(=O)NCC(=O)N[C@@H]([C@@H](C)O)C(=O)N2)NC(=O)[C@H](Cc2ccccc2)NC(=O)[C@H](CCCNC(=N)N)NC(=O)[C@H](Cc2c[nH]cn2)NC(=O)[C@H](CC(N)=O)NC1=O  viability (RIN-m5F; MTT; 20 µM, 24 h, with: hIAPP 20 µM): 85%
